Measurements from different studies.
Parts stem from different laboratories: compare values within a part only. Substitutions count along the parent as printed.
UniProt Q8IY84, sequence (whole entry, looked up): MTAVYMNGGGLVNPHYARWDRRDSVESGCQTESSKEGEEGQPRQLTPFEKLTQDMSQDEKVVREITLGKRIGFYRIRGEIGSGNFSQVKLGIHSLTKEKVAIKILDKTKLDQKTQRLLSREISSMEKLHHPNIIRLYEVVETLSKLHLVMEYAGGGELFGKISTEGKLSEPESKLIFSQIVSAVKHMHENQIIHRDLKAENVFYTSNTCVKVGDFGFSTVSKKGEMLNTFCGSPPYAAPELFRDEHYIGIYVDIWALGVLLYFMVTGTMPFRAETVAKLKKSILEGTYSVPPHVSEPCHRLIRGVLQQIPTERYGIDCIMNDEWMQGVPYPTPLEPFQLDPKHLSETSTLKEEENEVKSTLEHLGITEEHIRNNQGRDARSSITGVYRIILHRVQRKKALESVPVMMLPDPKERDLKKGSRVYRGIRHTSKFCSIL
UniProt Q13164, sequence (whole entry, looked up): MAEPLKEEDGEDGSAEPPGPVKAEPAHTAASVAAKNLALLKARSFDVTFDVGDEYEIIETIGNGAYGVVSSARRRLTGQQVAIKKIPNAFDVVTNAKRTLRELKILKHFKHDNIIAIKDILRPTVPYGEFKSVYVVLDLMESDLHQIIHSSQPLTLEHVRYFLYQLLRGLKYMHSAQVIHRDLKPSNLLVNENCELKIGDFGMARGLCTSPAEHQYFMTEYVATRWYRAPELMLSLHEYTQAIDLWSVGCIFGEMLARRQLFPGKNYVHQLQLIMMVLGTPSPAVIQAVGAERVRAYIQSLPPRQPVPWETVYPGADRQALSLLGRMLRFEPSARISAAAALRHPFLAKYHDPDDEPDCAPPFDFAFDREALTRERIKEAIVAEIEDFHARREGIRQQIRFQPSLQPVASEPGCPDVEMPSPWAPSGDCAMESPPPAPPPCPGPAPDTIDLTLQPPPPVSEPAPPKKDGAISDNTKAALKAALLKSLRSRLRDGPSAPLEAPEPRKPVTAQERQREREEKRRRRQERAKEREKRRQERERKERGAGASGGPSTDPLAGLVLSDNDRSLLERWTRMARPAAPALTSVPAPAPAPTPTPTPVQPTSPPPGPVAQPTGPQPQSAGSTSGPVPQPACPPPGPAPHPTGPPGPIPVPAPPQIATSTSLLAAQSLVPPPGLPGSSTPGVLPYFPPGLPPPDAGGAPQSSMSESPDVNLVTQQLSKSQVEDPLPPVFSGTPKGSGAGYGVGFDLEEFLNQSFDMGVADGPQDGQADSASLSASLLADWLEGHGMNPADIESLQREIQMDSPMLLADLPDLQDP
UniProt Q8IW41, sequence (whole entry, looked up): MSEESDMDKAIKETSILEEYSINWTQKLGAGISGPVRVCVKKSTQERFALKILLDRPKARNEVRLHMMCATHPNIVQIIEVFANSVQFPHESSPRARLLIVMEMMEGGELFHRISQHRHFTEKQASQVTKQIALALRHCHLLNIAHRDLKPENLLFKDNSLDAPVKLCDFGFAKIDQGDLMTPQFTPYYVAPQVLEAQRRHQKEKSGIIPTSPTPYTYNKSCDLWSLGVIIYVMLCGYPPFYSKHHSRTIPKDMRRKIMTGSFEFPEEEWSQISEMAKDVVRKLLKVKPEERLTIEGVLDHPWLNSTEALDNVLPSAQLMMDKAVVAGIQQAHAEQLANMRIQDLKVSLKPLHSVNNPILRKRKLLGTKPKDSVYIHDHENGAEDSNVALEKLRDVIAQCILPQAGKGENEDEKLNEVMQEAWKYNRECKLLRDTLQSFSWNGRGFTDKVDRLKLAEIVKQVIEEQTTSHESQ
UniProt O95819, sequence (whole entry, looked up): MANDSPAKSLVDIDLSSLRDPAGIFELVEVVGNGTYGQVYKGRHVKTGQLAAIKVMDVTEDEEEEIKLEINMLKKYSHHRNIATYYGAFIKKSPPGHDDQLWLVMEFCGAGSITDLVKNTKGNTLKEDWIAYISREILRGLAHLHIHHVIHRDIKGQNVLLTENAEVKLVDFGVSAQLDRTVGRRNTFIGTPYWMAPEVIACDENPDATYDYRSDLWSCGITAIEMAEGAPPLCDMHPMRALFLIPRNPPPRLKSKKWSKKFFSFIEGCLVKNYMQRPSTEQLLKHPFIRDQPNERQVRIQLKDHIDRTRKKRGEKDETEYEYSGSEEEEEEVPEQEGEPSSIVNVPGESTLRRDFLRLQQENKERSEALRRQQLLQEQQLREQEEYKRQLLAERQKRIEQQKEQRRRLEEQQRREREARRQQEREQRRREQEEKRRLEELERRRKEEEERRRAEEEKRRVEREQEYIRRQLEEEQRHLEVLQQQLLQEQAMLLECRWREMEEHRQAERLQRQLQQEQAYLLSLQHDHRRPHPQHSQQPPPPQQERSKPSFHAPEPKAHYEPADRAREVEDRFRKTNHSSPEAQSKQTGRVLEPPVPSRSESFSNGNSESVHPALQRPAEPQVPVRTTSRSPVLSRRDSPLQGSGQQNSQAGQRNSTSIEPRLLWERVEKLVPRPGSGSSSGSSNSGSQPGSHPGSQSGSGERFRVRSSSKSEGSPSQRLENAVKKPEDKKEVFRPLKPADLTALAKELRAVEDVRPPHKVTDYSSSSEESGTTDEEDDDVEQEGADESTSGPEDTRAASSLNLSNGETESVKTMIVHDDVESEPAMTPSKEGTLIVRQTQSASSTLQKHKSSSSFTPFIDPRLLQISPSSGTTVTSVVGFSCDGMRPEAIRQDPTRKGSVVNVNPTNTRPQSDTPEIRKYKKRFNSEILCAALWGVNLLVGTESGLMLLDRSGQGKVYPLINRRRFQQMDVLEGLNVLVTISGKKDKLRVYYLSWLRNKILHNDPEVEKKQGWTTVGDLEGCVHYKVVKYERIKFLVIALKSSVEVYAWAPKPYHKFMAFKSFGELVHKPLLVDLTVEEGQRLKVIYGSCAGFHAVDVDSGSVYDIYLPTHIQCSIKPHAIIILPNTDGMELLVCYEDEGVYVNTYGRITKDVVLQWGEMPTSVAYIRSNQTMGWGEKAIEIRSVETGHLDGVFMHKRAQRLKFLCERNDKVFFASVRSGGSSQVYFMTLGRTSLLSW
UniProt P10721, sequence (whole entry, looked up): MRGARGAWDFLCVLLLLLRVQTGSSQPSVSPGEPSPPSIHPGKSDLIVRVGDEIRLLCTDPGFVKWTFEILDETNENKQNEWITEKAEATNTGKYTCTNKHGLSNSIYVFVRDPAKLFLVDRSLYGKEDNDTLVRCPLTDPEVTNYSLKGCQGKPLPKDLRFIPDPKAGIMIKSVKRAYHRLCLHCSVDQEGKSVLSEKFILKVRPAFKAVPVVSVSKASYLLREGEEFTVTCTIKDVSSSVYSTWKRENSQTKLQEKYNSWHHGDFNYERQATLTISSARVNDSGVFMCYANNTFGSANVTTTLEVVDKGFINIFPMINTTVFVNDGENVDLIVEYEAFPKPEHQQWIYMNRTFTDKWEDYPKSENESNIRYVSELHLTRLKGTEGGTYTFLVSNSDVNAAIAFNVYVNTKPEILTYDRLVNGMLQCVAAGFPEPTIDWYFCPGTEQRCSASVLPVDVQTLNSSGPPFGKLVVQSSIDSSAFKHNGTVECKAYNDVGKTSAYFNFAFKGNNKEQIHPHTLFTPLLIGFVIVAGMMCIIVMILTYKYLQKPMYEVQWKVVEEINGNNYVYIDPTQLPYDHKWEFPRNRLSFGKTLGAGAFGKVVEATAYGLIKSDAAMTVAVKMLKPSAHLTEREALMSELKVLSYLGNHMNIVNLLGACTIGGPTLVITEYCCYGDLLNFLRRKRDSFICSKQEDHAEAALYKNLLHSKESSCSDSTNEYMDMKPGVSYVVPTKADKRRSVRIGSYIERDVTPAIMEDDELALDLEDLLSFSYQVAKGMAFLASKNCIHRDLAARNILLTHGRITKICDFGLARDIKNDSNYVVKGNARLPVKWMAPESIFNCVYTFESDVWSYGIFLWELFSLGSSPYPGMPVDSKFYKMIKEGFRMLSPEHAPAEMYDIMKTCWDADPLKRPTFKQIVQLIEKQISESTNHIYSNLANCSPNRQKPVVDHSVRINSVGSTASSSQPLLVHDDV
UniProt Q13555, sequence (whole entry, looked up): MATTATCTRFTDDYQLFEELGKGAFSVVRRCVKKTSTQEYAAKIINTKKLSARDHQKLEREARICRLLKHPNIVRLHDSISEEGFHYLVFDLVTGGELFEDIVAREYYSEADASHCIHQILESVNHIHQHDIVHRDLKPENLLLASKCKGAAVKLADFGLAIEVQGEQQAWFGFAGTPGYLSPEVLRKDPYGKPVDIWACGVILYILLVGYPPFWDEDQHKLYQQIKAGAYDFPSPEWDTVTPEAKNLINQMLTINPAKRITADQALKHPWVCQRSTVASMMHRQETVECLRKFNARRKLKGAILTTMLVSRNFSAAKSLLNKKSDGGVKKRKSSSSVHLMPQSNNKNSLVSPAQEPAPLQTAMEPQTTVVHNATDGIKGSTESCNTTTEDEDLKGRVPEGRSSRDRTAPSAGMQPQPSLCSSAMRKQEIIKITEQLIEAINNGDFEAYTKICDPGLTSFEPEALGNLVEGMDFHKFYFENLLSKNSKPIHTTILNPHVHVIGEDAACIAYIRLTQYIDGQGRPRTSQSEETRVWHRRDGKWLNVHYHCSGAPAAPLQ

Set 1
Target: ABI1, truncated, D143A, DHFR fusion (Arabidopsis thaliana)
Technique: DHFR PCA, deep sequencing
Sample: yeast
Setting: methotrexate growth selection, single substitutions
With: (+)-ABA 200 µM
Relative to: wild-type fitted maximum
Direction: higher = stronger binding
Starting sequence: PYL1, truncated, DHFR fusion (Arabidopsis thaliana); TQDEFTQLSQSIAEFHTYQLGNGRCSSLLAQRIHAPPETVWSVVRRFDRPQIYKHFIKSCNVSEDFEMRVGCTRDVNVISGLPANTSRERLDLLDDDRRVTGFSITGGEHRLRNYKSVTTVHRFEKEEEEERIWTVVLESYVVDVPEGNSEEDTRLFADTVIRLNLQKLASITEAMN
Variant	relative binding score [%]
V70N	75.2
P83M	18.6
L28K	80.6
F66C	100
A175D	98.7
L8Y	101
I105Y	-12.3
A35L	18.5

Set 2
SMILES: c1ccc(N2CCN(Cc3nc4ccccc4[nH]3)CC2)nc1
Technique: competition with immobilised ligand
Tested at: 1 µM
target	test	remaining binding [%]
MAPK7 (Homo sapiens, UniProt Q13164)	binding	100
PDGFRB (Homo sapiens, UniProt P09619)	cell-free assay	100
CDK18 (Homo sapiens, UniProt Q07002)	binding	94
CAMK2G (Homo sapiens, UniProt Q13555)	binding	100
KIT (Homo sapiens, UniProt P10721)	binding	100
NEK11 (Homo sapiens, UniProt Q8NG66)	binding	100
MINK1 (Homo sapiens, UniProt Q8N4C8)	binding	100
NIM1K (Homo sapiens, UniProt Q8IY84)	binding	100
Tyrosine-protein kinase ABL1, non-phosphorylated (ABL1, Homo sapiens, UniProt P00519, Q252H)	binding	93
EGFR (Homo sapiens, UniProt P00533, L858R/T790M)	cell-free assay	100
MAPKAPK5 (Homo sapiens, UniProt Q8IW41)	binding	100
Myosin-IIIb (MYO3B, Homo sapiens, UniProt Q8WXR4)	binding	95
FLT3 (Homo sapiens, UniProt P36888, D835V)	binding	88
PRKX (Homo sapiens, UniProt P51817)	cell-free assay	100
PAK1 (Homo sapiens, UniProt Q13153)	cell-free assay	94
ACVR2B (Homo sapiens, UniProt Q13705)	binding	100
CSNK1E (Homo sapiens, UniProt P49674)	binding	100
CLK2 (Homo sapiens, UniProt P49760)	binding	89
TNNI3K (Homo sapiens, UniProt Q59H18)	cell-free assay	100
FLT3 (Homo sapiens, UniProt P36888, D835H)	binding	100
ERBB2 (Homo sapiens, UniProt P04626)	binding	78
MAST1 (Homo sapiens, UniProt Q9Y2H9)	binding	65
DCLK1 (Homo sapiens, UniProt O15075)	binding	100

Set 3
Target: Eukaryotic initiation factor 4A-I (EIF4A1, Homo sapiens, UniProt P60842, residues 1-406, full length assumed)
UniProt P60842, sequence (whole entry, looked up): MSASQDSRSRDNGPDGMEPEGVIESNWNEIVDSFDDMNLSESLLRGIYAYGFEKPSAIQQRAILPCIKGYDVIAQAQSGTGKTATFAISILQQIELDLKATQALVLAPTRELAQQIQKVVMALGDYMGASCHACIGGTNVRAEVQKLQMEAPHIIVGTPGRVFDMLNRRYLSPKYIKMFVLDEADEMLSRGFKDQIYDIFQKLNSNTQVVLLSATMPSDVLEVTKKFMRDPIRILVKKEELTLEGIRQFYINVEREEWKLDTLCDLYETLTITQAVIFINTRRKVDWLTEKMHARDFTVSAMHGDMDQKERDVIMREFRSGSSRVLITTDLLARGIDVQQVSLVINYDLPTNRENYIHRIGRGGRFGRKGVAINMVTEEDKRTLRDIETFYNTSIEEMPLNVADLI
Technique: RNA Bind-n-Seq
Molecule type: RNA
Sample: in vitro
Tested at: 90 pmol
Setting: 4-mer, random 30-nt RNA, single round
With: 3 µM iPr-DMDA-PatA, 2 mM ADP, 2 mM phosphate
Relative to: input library
Direction: higher = stronger binding
Strand	4-mer enrichment
ACAU	1.16 fold
AGCA	1.05 fold
CCGA	1.07 fold
GUUC	0.922 fold
AUUC	1.16 fold
UAAG	1.2 fold
GAGA	1.31 fold
CCGG	0.732 fold

Set 4
Target: Microphthalmia-associated transcription factor, full length (MITF, Homo sapiens, UniProt O75030-10, residues 1-413)
Technique: protein-binding microarray
Molecule type: hairpin DNA
Sample: in vitro
Tested at: not given
Setting: whole hairpin DNA, median over replicate spots
Relative to: not given
Direction: higher = stronger binding
Strand	median fluorescence [a.u.]
CACTTAACACGTGATTTTGGTCCTCCAAAATCACGTGTTAAGTGACACTC	23900
CACTTAGCACGTGAGTTTGGTCCTCCAAACTCACGTGCTAAGTGACACTC (5mC at 30)	18000
GAGGCCTATCACGTGCTGCCTCCTGGCAGCACGTGATAGGCCTCACACTC	25800
CACTTCGCACGTGATTTTGGTCCTCCAAAATCACGTGCGAAGTGACACTC (5mC at 6)	26000
CACTTAGCACGTGAATTTGGTCCTCCAAATTCACGTGCTAAGTGACACTC	20800
GAGGCCTAGCGCGTGCTGCCTCCTGGCAGCACGCGCTAGGCCTCACACTC (5mC at 10 34)	12000
GAGGCCTCGCACGTGCTGCCTCCTGGCAGCACGTGCGAGGCCTCACACTC	19400
CACTTAGCACGTGCGTTTGGTCCTCCAAACGCACGTGCTAAGTGACACTC	20200

Set 5
SMILES: CN1CCN(c2ccc3nc(-c4c(N)c5c(F)cccc5[nH]c4=O)[nH]c3c2)CC1
Observed: enzyme activity
Action: inhibitor
Tested at: 0.5 µM
Relative to: control
target	remaining activity
TSSK2 (Homo sapiens, UniProt Q96PF2)	80.6%
Cyclin-dependent kinase 4, with cyclin D3 (CDK4, Homo sapiens, UniProt P11802)	89.6%
MAP4K4 (Homo sapiens, UniProt O95819)	2.96%

For quick reference, copied from above (set 2):
target	test	remaining binding [%]
EGFR (Homo sapiens, UniProt P00533, L858R/T790M)	cell-free assay	100
PDGFRB (Homo sapiens, UniProt P09619)	cell-free assay	100
MAST1 (Homo sapiens, UniProt Q9Y2H9)	binding	65
DCLK1 (Homo sapiens, UniProt O15075)	binding	100
